{"data": "Results gathered from unrelated publications", "medium": "plasma", "note": "Protocols differ between the studies behind these lines. ± gives the spread as reported."}
{"SMILES": "CC(C)(O)c1ncc([S@](N)(=O)=NC(=O)Nc2c3c(cc4c2CCC4)CCC3)s1", "host": "human", "route": "oral", "dose": "30 mg", "notes": "single dose, fasted, healthy volunteers", "half-life": "16.4 h"}
{"SMILES": "CN1CCC[C@]1(C)/C=C/S(=O)(=O)NC(=O)Nc1c2c(cc3c1CCC3)CCC2", "host": "human", "route": "oral", "dose": "100 mg", "notes": "single dose, healthy volunteers", "half-life": "6.3 h"}
{"SMILES": "Cc1ccc(OCC(=O)N(Cc2cccs2)c2ccn[nH]2)cc1", "host": "beagle dog, male", "route": "oral gavage", "dose": "100 mg/kg", "half-life": "5.25 h"}
{"SMILES": "O=C(CCc1ccc(CNC(C(=O)OC2CCCC2)C2CCCCC2)cn1)NO (stereo not shown)", "host": "human", "route": "oral", "dose": "20 mg", "notes": "multiple doses, once daily, patients", "half-life": "0.368 h"}
{"SMILES": "CC(C)[C@H](NC(=O)CNC(=O)[C@H](CCC(N)=O)NC(=O)[C@H](C)N)C(=O)O", "technique": "LC-MS/MS", "host": "human, male", "route": "intravenous", "dose": "20 mg/kg three times daily", "time": "day 3, first dose", "notes": "10 min infusion, geometric mean", "half-life": "0.13 h"}
{"SMILES": "CC12CC(c3ccc(S(C)(=O)=O)cc3)C3=C4CCC(=O)C=C4CCC3C1CCC2(O)C(F)(F)C(F)(F)F (stereo not shown)", "host": "human", "route": "oral", "dose": "4 mg", "notes": "single dose, fasted, healthy volunteers", "half-life": "38.9 h"}
{"SMILES": "CC(=O)N[C@H](CSSC[C@H](N)C(=O)O)C(=O)N[C@H](C)C(=O)N[C@H](CCCNC(=N)N)C(=O)N[C@H](CCCNC(=N)N)C(=O)N[C@H](CCCNC(=N)N)C(=O)N[C@H](C)C(=O)N[C@H](CCCNC(=N)N)C(N)=O", "host": "male human", "route": "intravenous", "dose": "0.5 mg", "notes": "single dose, healthy volunteers", "half-life": "19.4 h"}
{"SMILES": "CCc1cc(Nc2nc(-c3ccc(-n4cnc(C)c4)c(F)c3)cs2)c(C)cc1C", "host": "human", "route": "oral", "dose": "100 mg", "notes": "multiple doses, once daily", "half-life": "8.7 h"}
{"SMILES": "CCCC[C@H](NC(C)=O)C(=O)N[C@H]1CC(=O)NCCCC[C@@H](C(=O)N[C@@H](C(=O)N2CCC[C@@H]2C(N)=O)C(C)C)NC(=O)[C@H](Cc2c[nH]c3ccccc23)NC(=O)[C@H](CCCN=C(N)N)NC(=O)[C@@H](Cc2ccc3ccccc3c2)NC(=O)[C@@H]2CCCN2C1=O", "host": "Beagle dog, both sexes", "route": "subcutaneous, once daily", "dose": "0.75 mg/kg", "time": "day 1", "half-life": "2 ± 0.1 h"}
{"SMILES": "[2H]C([2H])([2H])NC(=O)c1ccc(N2C(=S)N(c3ccc(C#N)c(C(F)(F)F)c3)C(=O)C2(C)C)cc1F", "host": "male human", "route": "oral", "dose": "40 mg", "notes": "single dose, fasted", "half-life": "140 h"}
{"note": "Excerpt of the above:"}
{"SMILES": "Cc1ccc(OCC(=O)N(Cc2cccs2)c2ccn[nH]2)cc1", "host": "beagle dog, male", "route": "oral gavage", "dose": "100 mg/kg", "half-life": "5.25 h"}
